Assay results gathered from unrelated publications.
Every numbered part comes from another study and shows a few of its results, in no order. Positions count from the first letter of the parent shown.

Set 1
Target: Histone acetyltransferase KAT6A, both winged helices, GST fusion (KAT6A, Homo sapiens, UniProt Q92794, residues 1-181)
Method: protein binding microarray
Form: double-stranded DNA, one strand shown
Medium: in vitro
Tested at: not given
Setting: 8-mer, flanks averaged, mean of 2 arrays, mostly near background
Baseline: not given
Reading: higher = stronger binding
Residues (chain): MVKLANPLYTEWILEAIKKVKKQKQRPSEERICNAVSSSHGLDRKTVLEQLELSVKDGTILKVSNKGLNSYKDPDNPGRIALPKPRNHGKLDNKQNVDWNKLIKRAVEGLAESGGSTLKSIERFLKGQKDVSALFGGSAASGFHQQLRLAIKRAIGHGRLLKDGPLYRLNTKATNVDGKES
Sequence | E-score
CGACAGAA | 0.147
ATGCGAAG | 0.00306
CGGTTAAC | 0.206
ACTTAATC | -0.136
ACCGGAGG | 0.0663
CCTGGTGA | -0.17
AGCTGTCA | -0.239
CACTTTCC | -0.135
GTCCGGTA | 0.159
CGTATAAG | 0.091
AAACTCCG | 0.107
GCTGAGAC | -0.112
AATACTTA | -0.09

Set 2
Target: Interferon regulatory factor 5, full length, phosphomimetic (IRF5, Homo sapiens, UniProt Q13568-2, residues 1-514, K96S/S451D/S453D/S456D/S462D)
Method: protein-binding microarray
Form: double-stranded DNA, one strand shown
Medium: in vitro
Tested at: 250 nM
Setting: 60-bp whole probe
Added: salmon DNA 0.4 mg/ml
Baseline: random background probes
Reading: higher = stronger binding
Constant ends, left off below: GCCTAGCAC … GTCTTGATTCGCTTGACGCTGCTG
Sequence | log fluorescence [z-score]
GTAGGACTGGACTATCGGTTAGTGCTA | 5.41
GACGGACTGGGTTTCGGCACGTGCTAG | 2.34
TCTTTTTTTCTTTTATTAGTGTGCTAG | 1.8
TTAGGTCTCCTATTGCTTTAGTGCTAG | -0.462
TAAGGTCTCCTTTTCCTTTAGTGCTAG | 0.208
TTAGGTCTCCTCCTCCTTTAGTGCTAG | -0.165
TAAGGTCTCCTTATCCTTTAGTGCTAG | -0.206
TCTTTTATTTTTTTTATTTAGTGCTAG | 1.57
TGACTTTTGAGAGATGGAAACGTGCTA | 0.654
GACGATCTCAGACTGGCGACGTGCTAG | -0.192
TTAGGTTTACTTTTCCTTTAGTGCTAG | 1.15

Set 3
Target: ABI1, truncated, D143A, DHFR fusion (Arabidopsis thaliana)
Method: DHFR PCA, deep sequencing
Medium: yeast
Setting: methotrexate growth selection, single substitutions
Added: (+)-ABA 17 µM
Baseline: wild-type fitted maximum
Reading: higher = stronger binding
Starting sequence: PYL1, truncated, DHFR fusion (Arabidopsis thaliana); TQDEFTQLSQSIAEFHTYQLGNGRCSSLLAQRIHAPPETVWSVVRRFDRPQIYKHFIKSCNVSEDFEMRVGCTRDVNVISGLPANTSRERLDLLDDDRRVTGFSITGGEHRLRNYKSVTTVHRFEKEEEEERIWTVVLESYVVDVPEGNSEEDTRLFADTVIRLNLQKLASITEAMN; partner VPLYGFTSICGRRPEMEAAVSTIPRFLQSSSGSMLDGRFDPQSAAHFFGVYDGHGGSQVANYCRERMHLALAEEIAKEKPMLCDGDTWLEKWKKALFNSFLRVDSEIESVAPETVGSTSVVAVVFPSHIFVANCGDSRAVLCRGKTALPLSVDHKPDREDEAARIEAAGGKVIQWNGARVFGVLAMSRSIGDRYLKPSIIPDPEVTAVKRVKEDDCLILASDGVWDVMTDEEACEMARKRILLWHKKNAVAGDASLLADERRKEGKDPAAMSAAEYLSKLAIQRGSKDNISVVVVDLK
Substitution | relative binding score [%]
L94E | -1.51
G102H | -7.2
E89K | 6.44
R132L | 82.6
A158F | 7.85
N165H | -5.58
M176I | 80.6
E174F | 20.2
V118K | 83.4
M176R | 83.5
Q167G | 75.4
T160E | 2.23
E129N | 82.9
L82I | 82.4
I52M | 79.1

Set 4
Target: Fragile X messenger ribonucleoprotein 1, C-terminal low-complexity region (Fmr1, Mus musculus, UniProt P35922)
Method: RNA Bind-n-Seq
Form: RNA
Medium: in vitro
Tested at: 200 nM
Setting: whole 134-nt RNA, ends assumed
Added: 150 mM KCl
Baseline: input library
Reading: higher = stronger binding
Sequence | log2 enrichment
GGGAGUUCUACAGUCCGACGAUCAAGUCCUGUGCUACACAUCGUAUGUACCGAAUCGGGGAAAAGGGAAAAGGAAAAGGGAAAGUAUUAUGUUACGCCGUUCGGAUCUGCACUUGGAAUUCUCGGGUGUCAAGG | -0.116
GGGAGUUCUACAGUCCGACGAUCACCAUGCAGGUGGGCAUCUUUGGGAAGUGGGGCAAGGGGGGGAUAGGGAGGGGGGUAACACUUUGGGAACAGGUGGUCCGAGGUCGUUUCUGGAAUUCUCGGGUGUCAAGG | 0.615
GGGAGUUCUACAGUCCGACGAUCACCAUGCAGGUGGGCAUCUUUGGGAAGUGGGGCAAGGGGGGGAUAGGGAGGGGGGUAACAAAUUGGGAACAGGUGGUCCCAGGUCGUUUCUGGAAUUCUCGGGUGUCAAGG | 0.548
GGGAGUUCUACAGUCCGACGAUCGUCCUGUGCUACACAUCGUAUGUACCGAAUCAAACCCAAACCCCCAAACCCCCCCAAAAAAGUAUUAUGUUACGCCGUUCGGAUCUGCACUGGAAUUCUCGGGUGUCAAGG | -0.17
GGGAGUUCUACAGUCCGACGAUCUCAAGUCCUGUGCUACACAUCGUAUGUACCGAAUCGGCCCGGGGCCCGGCCCGGGAAAGUAUUAUGUUACGCCGUUCGGAUCUGCACUUCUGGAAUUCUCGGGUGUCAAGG | -0.524

Set 5
Target: Hepatocyte nuclear factor 3-alpha (Foxa1, Mus musculus, UniProt P35582, residues 1-468, full length assumed)
Method: EMSA with sequencing
Form: double-stranded DNA, one strand shown
Medium: in vitro
Tested at: 10 and 20 nM
Setting: whole designed probe, mean of two concentrations, ends assumed
Baseline: negative control set to 0
Reading: higher = stronger binding
Residues (chain): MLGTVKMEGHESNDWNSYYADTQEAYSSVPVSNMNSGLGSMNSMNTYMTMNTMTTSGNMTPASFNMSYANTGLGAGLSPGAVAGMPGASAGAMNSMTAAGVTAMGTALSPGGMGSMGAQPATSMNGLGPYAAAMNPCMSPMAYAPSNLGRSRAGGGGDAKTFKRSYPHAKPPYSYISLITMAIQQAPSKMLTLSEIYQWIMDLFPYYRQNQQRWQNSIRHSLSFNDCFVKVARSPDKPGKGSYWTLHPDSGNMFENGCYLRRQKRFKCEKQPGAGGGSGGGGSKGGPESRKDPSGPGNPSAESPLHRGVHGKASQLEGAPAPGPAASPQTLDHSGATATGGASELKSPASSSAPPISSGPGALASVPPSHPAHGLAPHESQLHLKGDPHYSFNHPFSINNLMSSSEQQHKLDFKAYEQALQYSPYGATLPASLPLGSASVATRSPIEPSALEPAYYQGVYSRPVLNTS
Sequence | normalised bound fraction [ratio]
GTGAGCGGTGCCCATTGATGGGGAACCTAAGAGTTGGCAGATCATGCAACAGCCCGGGTCCCTGAATGGCCATGTAGAACATGATCTCTACCCTGACCTATTTTAGACAGTACAATTAAATAATCTAGCAGACTTTTGTAGTAGAAAATCCCTGGAATTTGGGGTTTATTTATTACTAAAGAATAGCTTTGCATCTGGCCCTTGTTTATCTGTCATTTATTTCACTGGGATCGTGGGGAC | 0.0533
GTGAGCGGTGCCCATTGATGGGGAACTGGGCTGTCCTTGGACAGGGCCATGGGATGCCACTTCCCTCTCTCTCCCTTTGGCAGAGAGCCCTCGGAAACAGGAGTTATTGAGAAACCAAAAGTAAACAGCTCAGCCTCTCCCCGGGGCCTGTGGAGCCTGTTGCCCCGGATGGATGGGGTTAGTGCCAGCAGCTGCTCAGATGATCTGTGGGGCATGTTCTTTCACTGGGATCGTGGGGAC | 0.29
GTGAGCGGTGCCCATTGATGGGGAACAGCAAGGCTTTAAAAGTGAGGTCTTTCAGTTTAGATGCAAAAAGGGTGGTTCTGTTGAGTCAACCCAGCTATTTCGTTTCGTAATACTACATAGTAAACACCTAGAATGAGGTAGCTGGAGTGCAAATCTAAATGGCTTGTGACAGTTAAGGAAGTACATAGGCAACAGTTACTGGTTTTCTTGATGCAGCTGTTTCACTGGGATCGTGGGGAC | -0.0016
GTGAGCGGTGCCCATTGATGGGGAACGCAGACCGGCTCCACCGTGCCTTCTGGCCCTGAAGGGCTGGGCAGGTCCACGCCCTGCACCCTGGAGCTCCCCGGGGAGGGCGGGTGTAGGAATGTTTGCCCAGTGAGTGGACAGACGTTTACACAGCGGGATTTATAACCCACATCAGACGTCAACTCCGGGAGAAAGGGAGCTGTCCGCCCAGCCTCGAGCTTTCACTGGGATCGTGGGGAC | 0.211
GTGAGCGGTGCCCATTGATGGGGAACTTTAACAACCTATAAACAGGGCCTCGGTATTGAATTCTTTGTCTTATTTAAGTCAAAAGGAACCAGATTACTTTTTTTATGGTTTTAACAAAGTAATCTGGAGCTGGAAAATATCCAAAACTGTTCAAATCAATGTTGTTTTTTACCAGGCTAGGGCTGTTAATAAATATACCATAAATGAGCTCAGACTTTTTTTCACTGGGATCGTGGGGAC | -0.0124

Some of these lines once more (set 4):
Sequence | log2 enrichment
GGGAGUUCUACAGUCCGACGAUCAAGUCCUGUGCUACACAUCGUAUGUACCGAAUCGGGGAAAAGGGAAAAGGAAAAGGGAAAGUAUUAUGUUACGCCGUUCGGAUCUGCACUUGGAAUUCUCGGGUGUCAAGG | -0.116
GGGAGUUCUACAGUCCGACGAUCACCAUGCAGGUGGGCAUCUUUGGGAAGUGGGGCAAGGGGGGGAUAGGGAGGGGGGUAACAAAUUGGGAACAGGUGGUCCCAGGUCGUUUCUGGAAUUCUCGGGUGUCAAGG | 0.548
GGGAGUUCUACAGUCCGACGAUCUCAAGUCCUGUGCUACACAUCGUAUGUACCGAAUCGGCCCGGGGCCCGGCCCGGGAAAGUAUUAUGUUACGCCGUUCGGAUCUGCACUUCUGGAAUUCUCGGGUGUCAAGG | -0.524
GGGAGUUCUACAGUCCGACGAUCACCAUGCAGGUGGGCAUCUUUGGGAAGUGGGGCAAGGGGGGGAUAGGGAGGGGGGUAACACUUUGGGAACAGGUGGUCCGAGGUCGUUUCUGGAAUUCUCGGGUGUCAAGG | 0.615
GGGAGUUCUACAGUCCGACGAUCGUCCUGUGCUACACAUCGUAUGUACCGAAUCAAACCCAAACCCCCAAACCCCCCCAAAAAAGUAUUAUGUUACGCCGUUCGGAUCUGCACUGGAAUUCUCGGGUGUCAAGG | -0.17
